Earlier results as cited in several papers.
Protocols differ between the studies behind these lines. ± gives the spread as reported.
B1: HPV E7 protein; chain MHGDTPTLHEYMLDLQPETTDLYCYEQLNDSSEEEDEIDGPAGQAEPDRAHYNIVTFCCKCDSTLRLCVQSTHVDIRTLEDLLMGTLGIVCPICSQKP
B2: cyanovirin-N; sequence looked up; chain LGKFSQTCYNSAIQGSVLTSTCERTNGGYNTSSIDLNSVIENVDGSLKWQPSNFIETCRNTQLAGSSELAAECKTRAQQFVSTKINLDDHIANIDGTLKYE

CCN(CCO)CCCC(C)Nc1ccnc2cc(Cl)ccc12 (stereo not drawn)
EC50 (SARS-CoV; cytopathic effect; Vero E6): 7.97 µM

B1 (HPV E7 protein)
affinity ratio (Rb pocket domain; baseline: full-length protein over LxCxE peptide): 20 fold

CCN(CC)Cc1cc(Nc2ccnc3cc(Cl)ccc23)ccc1O
EC50 (SARS-CoV; cytopathic effect; Vero E6): 1.27 µM

B2 (cyanovirin-N)
EC50 (Ebola virus; viral replication): 0.1 µM

O=C(NCc1c(F)cc(F)cc1F)c1cn2c(c(O)c1=O)C(=O)N1[C@H]3CC[C@H](C3)O[C@@H]1C2
EC50 (HIV-1; viral replication, single-round vector infection; IN G140S/Q148H): 0.0046 ± 0.0004 µM

C[C@@H]1C[C@H]2[C@@H]3CCC4=CC(=O)C=C[C@]4(C)[C@@]3(F)[C@@H](O)C[C@]2(C)[C@@]1(O)C(=O)CO
Cmax (human; 20 mg): 257 ng/mL

O=C(O[C@@H]1Cc2c(O)cc(O)cc2O[C@@H]1c1cc(=O)c(O)c2c(O)c(O)cc([C@H]3Oc4cc(O)cc(O)c4C[C@H]3O)c2c1)c1cc(O)c(O)c(O)c1
IC50 (SARS-CoV-2 main protease; enzyme activity, inhibitor): 18.5 µM

tirzepatide
body weight loss (human; dose not given): ≤ 20.9%

C[C@H]1CO[C@@H]2Cn3cc(C(=O)NCc4ccc(F)cc4F)c(=O)c(O)c3C(=O)N12
EC50 (HIV-1 integrase S230N; viral replication; HIV-1; single-round vector): 0.0032 ± 0.0005 µM

CC(C)c1cc2c(c(O)c1O)[C@@]1(C(=O)O)CCCC(C)(C)[C@@H]1CC2
Ki (paraoxonase 1, human; inhibitor): 94 ± 30 µM

Nc1ncnc2c([C@@H]3N[C@H](CO)[C@@H](O)[C@H]3O)c[nH]c12
EC50 (Marburg virus; viral replication): 4.4 to 6.7 µM

CC(CN1c2ccccc2Sc2ccccc21)N(C)C (stereo not drawn)
EC50 (MERS-CoV; viral replication, ELISA; Vero E6): 11.8 µM

C[C@@H]1CCO[C@H]2Cn3cc(C(=O)NCc4ccc(F)cc4F)c(=O)c(O)c3C(=O)N12
EC50 (HIV-1; viral replication, single-round vector infection; IN R263K): 0.0052 ± 0.0006 µM

CC(C)(C)[C@H](NC(=O)C(F)(F)F)C(=O)N1C[C@H]2[C@@H]([C@H]1C(=O)N[C@H](C#N)C[C@@H]1CCNC1=O)C2(C)C
CC50 (Vero; cytotoxicity): > 100 µM

CCN(CC)CCO[C@H]1CC[C@@]2(C)C(=CC[C@@H]3[C@@H]2CC[C@]2(C)C(=O)CC[C@@H]32)C1
IC50 (Ebola virus; viral replication, eGFP reporter virus; Vero E6): 8.05 µM

For quick reference, copied from above:
CCN(CC)CCO[C@H]1CC[C@@]2(C)C(=CC[C@@H]3[C@@H]2CC[C@]2(C)C(=O)CC[C@@H]32)C1
IC50 (Ebola virus; viral replication, eGFP reporter virus; Vero E6): 8.05 µM
